# Assay results pooled from the literature.
# Numbered parts are unrelated; each lists some results of a single study.

# Series 1
# Target: Interferon regulatory factor 5, full length, phosphomimetic (IRF5, Homo sapiens, UniProt Q13568-2, residues 1-514, K96S/S451D/S453D/S456D/S462D)
# Method: protein-binding microarray
# Molecule type: double-stranded DNA, one strand shown
# Medium: in vitro
# Concentration: 250 nM
# Setting: 60-bp whole probe
# Added: salmon DNA 0.4 mg/ml
# Reference: random background probes
# Reading: higher = stronger binding
# All sequences stand within: GCCTAGCAC … GTCTTGATTCGCTTGACGCTGCTG
Strand,log fluorescence [z-score]
GACGGTATCGGTATCGCGACGTGCTAG,5.43
TTAGGACGGGACACTGGGTTAGTGCTA,-0.513
TCCACTTTGACTTAAGAGGCGTGCTAG,0.0559
TTAGGGCTGGGTCTCGGTTAGTGCTAG,-0.022
TCATTTCCCAACATCAGACTGTGCTAG,0.562
GACGTTCTCGGACTGGGGACGTGCTAG,-0.499
TTAGGACTGGGGTTTCGGTTAGTGCTA,6.01
GACGATATCGGATATCGAGACGTGCTA,1.94

# Series 2
# Target: Histone acetyltransferase KAT6A, both winged helices, GST fusion (KAT6A, Homo sapiens, UniProt Q92794, residues 1-181)
# Method: protein binding microarray
# Molecule type: double-stranded DNA, one strand shown
# Medium: in vitro
# Concentration: not given
# Setting: 8-mer, flanks averaged, mean of 2 arrays, mostly near background
# Reference: not given
# Reading: higher = stronger binding
# Construct (chain): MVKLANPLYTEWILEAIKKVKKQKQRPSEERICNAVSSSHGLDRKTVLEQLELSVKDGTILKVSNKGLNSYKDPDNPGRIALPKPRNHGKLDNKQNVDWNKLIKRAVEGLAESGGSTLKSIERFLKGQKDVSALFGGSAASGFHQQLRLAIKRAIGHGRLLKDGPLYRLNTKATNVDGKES
Strand,E-score
TAGAGACA,-0.221
AGCCTTCG,-0.0991
GCCCCGAC,0.0858
CCGTTAGC,0.181
CTCGAAGC,0.00304
CCTTAGTC,-0.139
CTATGTCC,-0.0669
AACAGAAT,0.00443
CATCGCCC,0.0788
CGCGGATC,0.294
AAACCATT,-0.159
GCGTATCC,0.191

# Series 3
# Target: Sal-like protein 4, full length isoform B (SALL4, Homo sapiens, UniProt Q9UJQ4-2, residues 1-616)
# Method: universal PBM
# Molecule type: double-stranded DNA, one strand shown
# Medium: in vitro
# Concentration: not given
# Setting: 8-mer, flanks averaged, mean of replicates
# Reading: higher = stronger binding
Strand,E-score
TAGTGCGA,-0.069
AGACCCAC,-0.205
ACGTTAGG,0.0956
AGATGCGA,0.0512
GTGGATGA,0.0292
AGACATGG,0.0849
CATAGAAC,-0.123
GCGGATCA,-0.153

# Further values, each from its own experiment
Molecule,target,test,system,conditions,how to read,measurement,value
"PhoQ, residues 284 288 289 292 302 303 NLCILV","PhoP, residues 12 14 15 18 19 IFFTR (Escherichia coli, UniProt P23836)","Sort-seq, refers to: YFP reporter",E. coli,"PhoQ-PhoP variant library, added: 10 µM Mg2+","reference: high Mg2+ state, higher = stronger signaling",fold induction,2.17

# For quick reference, copied from above (series 1):
Strand,log fluorescence [z-score]
TTAGGACTGGGGTTTCGGTTAGTGCTA,6.01
GACGTTCTCGGACTGGGGACGTGCTAG,-0.499
